Measured values pooled from the literature.
Lines come from different studies, so protocols differ. Numbers after ± are the reported error. The star is where a group is joined. * marks the point of attachment.
Action: substrate
FURIN: Furin (FURIN, Homo sapiens, UniProt P09958)
Sequence of UniProt P09958 (whole entry, looked up): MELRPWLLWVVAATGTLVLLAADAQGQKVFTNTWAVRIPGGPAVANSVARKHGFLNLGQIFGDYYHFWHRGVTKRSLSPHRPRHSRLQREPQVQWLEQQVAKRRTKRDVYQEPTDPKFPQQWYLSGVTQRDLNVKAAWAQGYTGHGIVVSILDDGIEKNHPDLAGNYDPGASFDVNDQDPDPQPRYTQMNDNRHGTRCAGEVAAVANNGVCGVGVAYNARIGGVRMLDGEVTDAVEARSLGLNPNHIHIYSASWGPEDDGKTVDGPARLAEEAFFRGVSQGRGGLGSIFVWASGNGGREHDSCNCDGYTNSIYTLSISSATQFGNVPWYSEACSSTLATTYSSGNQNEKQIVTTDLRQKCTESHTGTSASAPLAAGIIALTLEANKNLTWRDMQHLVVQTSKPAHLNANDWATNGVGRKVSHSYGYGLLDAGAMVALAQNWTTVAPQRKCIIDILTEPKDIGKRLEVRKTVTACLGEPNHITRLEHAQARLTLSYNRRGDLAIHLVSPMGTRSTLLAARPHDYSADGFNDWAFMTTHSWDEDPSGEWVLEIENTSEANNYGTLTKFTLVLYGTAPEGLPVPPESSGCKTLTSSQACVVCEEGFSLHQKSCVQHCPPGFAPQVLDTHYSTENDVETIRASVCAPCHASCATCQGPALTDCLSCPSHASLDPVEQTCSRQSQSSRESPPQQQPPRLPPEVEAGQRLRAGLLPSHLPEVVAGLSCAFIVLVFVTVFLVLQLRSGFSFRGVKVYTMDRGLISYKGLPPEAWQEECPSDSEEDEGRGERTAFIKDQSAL
Sequence of UniProt P19440 (whole entry, looked up): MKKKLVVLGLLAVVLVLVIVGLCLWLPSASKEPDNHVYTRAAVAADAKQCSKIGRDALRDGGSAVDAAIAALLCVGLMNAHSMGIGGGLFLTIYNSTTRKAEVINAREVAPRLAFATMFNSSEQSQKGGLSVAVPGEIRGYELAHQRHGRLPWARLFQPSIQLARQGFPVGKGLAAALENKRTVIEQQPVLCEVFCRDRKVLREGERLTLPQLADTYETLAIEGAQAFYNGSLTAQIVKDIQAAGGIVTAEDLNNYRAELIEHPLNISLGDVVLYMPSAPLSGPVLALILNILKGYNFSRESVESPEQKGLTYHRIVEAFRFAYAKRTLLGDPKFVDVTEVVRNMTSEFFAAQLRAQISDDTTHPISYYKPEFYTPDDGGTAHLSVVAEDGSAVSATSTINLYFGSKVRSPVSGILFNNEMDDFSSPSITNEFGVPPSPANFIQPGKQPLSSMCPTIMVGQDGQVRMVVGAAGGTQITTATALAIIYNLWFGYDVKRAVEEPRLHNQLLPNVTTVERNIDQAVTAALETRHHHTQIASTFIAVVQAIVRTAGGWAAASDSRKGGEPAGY
Sequence of UniProt P55210 (whole entry, looked up): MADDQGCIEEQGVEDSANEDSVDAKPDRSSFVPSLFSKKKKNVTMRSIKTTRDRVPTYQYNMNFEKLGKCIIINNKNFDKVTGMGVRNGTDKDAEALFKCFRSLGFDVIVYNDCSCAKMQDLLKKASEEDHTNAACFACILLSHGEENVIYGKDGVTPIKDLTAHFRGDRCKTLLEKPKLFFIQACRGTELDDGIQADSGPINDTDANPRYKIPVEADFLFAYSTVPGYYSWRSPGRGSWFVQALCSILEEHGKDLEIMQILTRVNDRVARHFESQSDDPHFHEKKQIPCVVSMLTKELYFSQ
Sequence of UniProt P07265 (whole entry, looked up): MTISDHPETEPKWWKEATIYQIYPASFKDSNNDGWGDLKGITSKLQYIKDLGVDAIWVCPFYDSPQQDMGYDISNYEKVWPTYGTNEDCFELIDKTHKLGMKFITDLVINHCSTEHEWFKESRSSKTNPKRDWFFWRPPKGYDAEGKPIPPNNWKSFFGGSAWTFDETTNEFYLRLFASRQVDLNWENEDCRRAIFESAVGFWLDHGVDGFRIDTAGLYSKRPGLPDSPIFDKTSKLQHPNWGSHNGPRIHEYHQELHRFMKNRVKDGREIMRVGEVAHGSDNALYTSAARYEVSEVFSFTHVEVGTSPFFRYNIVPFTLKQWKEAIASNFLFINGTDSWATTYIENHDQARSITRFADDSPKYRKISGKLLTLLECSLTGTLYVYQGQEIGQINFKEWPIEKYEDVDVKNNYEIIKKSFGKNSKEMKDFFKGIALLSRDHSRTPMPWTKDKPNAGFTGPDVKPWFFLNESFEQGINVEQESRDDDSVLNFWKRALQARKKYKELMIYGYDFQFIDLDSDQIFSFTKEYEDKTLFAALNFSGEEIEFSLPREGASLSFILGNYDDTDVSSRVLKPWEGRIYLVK
Sequence of UniProt Q2CEE3 (whole entry, looked up): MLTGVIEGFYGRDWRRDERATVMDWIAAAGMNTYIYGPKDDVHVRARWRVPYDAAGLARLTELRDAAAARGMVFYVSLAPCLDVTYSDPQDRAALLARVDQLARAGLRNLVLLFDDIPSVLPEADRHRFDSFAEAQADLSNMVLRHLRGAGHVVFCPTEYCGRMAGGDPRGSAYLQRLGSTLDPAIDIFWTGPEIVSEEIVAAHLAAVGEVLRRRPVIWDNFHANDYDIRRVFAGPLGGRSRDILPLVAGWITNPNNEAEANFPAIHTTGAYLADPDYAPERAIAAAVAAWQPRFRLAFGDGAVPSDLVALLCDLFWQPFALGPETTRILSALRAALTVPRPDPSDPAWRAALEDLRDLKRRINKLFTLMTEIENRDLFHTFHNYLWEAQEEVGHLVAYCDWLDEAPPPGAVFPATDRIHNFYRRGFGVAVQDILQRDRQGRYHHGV
Sequence of UniProt K7WIZ6 (whole entry, looked up): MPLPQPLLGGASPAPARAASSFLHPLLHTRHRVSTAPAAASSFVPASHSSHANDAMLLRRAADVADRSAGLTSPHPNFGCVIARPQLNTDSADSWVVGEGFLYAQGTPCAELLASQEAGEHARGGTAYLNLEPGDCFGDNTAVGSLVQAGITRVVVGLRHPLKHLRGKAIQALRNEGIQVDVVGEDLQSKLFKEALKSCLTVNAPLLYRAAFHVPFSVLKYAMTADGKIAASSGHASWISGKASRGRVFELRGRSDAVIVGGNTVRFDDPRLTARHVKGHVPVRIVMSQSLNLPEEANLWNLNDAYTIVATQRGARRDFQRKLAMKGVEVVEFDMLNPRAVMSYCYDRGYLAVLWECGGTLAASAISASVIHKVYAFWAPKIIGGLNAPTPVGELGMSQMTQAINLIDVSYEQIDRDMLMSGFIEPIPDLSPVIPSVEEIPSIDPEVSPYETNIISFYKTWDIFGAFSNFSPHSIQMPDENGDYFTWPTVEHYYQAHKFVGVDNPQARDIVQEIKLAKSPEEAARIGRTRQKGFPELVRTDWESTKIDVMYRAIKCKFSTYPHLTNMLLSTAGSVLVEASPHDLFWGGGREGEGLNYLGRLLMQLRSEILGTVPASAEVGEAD
Sequence of UniProt P00459 (whole entry, looked up): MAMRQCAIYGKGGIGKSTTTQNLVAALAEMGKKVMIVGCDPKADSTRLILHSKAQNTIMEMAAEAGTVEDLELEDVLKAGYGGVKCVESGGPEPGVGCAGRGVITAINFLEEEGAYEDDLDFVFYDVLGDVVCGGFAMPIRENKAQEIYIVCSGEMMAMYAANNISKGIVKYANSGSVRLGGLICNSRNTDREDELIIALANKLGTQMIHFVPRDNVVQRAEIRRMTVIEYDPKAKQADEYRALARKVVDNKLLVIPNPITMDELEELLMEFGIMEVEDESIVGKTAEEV

CCCCCCC(=O)Oc1ccc2c(C)cc(=O)oc2c1  Km (Fatty acid synthase, thioesterase domain (FASN, Homo sapiens, UniProt P49327); thioesterase domain hydrolysis, fluorogenic; recombinant thioesterase domain): 38.5 µM
Cc1cc(=O)oc2cc(NC(=O)[C@H](CCCNC(=N)N)NC(=O)[C@H](CCCNC(=N)N)NC(=O)[C@@H](NC(=O)[C@H](CCCNC(=N)N)NC(=O)OC(C)(C)C)C(C)C)ccc12  Km (FURIN; fluorogenic; pH 7.5, 25 °C, together with: Boc-RVRR-AMC): 28 ± 1 µM
Nc1ncnc2c1ncn2[C@@H]1O[C@H](COP(=O)(O)OP(=O)(O)OP(=O)(O)O)[C@@H](O)[C@H]1O  Km (Nitrogenase iron protein 1, with MoFe protein (nifH1, Azotobacter vinelandii, UniProt P00459); acetylene reduction; pH 8, 303 K, together with: MoFe protein 0.4 µM, Fe protein 1.6 µM): 650 ± 110 µM
CCOc1ccc2nc3ccc(=O)cc-3oc2c1  Km (rat CYP1A; O-deethylation; liver microsomes; 15 min, 37 °C, 3-week-old control rats): 7.89 ± 3.66 µM
N[C@@H](CCC(=O)Nc1ccc([N+](=O)[O-])cc1)C(=O)O  Km (Glutathione hydrolase 1 proenzyme (Homo sapiens, UniProt P19440); transpeptidation, pNA release; pH 7.4, 37 °C, together with: glycylglycine acceptor): 1200 ± 100 µM
Nc1nc2c(ncn2[C@@H]2O[C@H](COP(=O)(O)OP(=O)(O)OP(=O)(O)O)[C@@H](O)[C@H]2O)c(=O)[nH]1  Km (retinal guanylyl cyclase (mouse, native); ROS fraction from GCAP1,2 knockout retinas; pH 7.2, 30 °C): 1310 ± 170 µM
CC(=O)N[C@H]1[C@H](Oc2ccc([N+](=O)[O-])cc2)O[C@H](CO)[C@@H](O)[C@@H]1O  Km (Protein O-GlcNAcase (Oceanicola granulosus, UniProt Q2CEE3); Oceanicola granulosus, 2% DMSO; pH 7.5, 37 °C): 8500 ± 600 µM
O=[N+]([O-])c1ccc(O[C@H]2O[C@H](CO)[C@@H](O)[C@H](O)[C@H]2O)cc1  Km (Alpha-glucosidase MAL62 (MAL62, Saccharomyces cerevisiae, UniProt P07265); hydrolysis): 537 ± 76 µM
Nc1nc(N[C@@H]2O[C@H](COP(=O)(O)O)[C@@H](O)[C@H]2O)c(N)c(=O)[nH]1 (mixture of isomers)  Km (Riboflavin biosynthesis protein PYRR, chloroplastic, COG domain (PYRR, Zea mays, UniProt K7WIZ6); HPLC-UV; pH 8.0, 22 °C, together with: 5 mM MgCl2): 5560 ± 490 µM
Ac-LDEVD-pNA (N-acetyl, C-pNA; pNA = O=[N+]([O-])c1ccc(N*)cc1)  Km (Caspase-7 (CASP7, Homo sapiens, UniProt P55210); substrate hydrolysis, colorimetric; pH 7.5): 61 ± 3 µM
C=CC[S@+]([O-])C[C@H](N)C(=O)O  Km (alliinase (Cupriavidus necator); pH 7.0, together with: 20 mM PLP): 830 µM
Boc-RVRR-{AMC} (N-Boc, C-AMC; Boc = CC(C)(C)OC(=O)*; AMC = Cc1cc(=O)oc2cc(N*)ccc12)  Km (FURIN; cleavage; 37 °C): 99 µM

Some of these lines once more:
O=[N+]([O-])c1ccc(O[C@H]2O[C@H](CO)[C@@H](O)[C@H](O)[C@H]2O)cc1  Km (Alpha-glucosidase MAL62 (MAL62, Saccharomyces cerevisiae, UniProt P07265); hydrolysis): 537 ± 76 µM
Nc1nc(N[C@@H]2O[C@H](COP(=O)(O)O)[C@@H](O)[C@H]2O)c(N)c(=O)[nH]1 (mixture of isomers)  Km (Riboflavin biosynthesis protein PYRR, chloroplastic, COG domain (PYRR, Zea mays, UniProt K7WIZ6); HPLC-UV; pH 8.0, 22 °C, together with: 5 mM MgCl2): 5560 ± 490 µM
